Assay results of several laboratories.
Lines come from different studies, so protocols differ. ± gives the spread as reported.
Chain of UniProt P27338 (whole entry, looked up): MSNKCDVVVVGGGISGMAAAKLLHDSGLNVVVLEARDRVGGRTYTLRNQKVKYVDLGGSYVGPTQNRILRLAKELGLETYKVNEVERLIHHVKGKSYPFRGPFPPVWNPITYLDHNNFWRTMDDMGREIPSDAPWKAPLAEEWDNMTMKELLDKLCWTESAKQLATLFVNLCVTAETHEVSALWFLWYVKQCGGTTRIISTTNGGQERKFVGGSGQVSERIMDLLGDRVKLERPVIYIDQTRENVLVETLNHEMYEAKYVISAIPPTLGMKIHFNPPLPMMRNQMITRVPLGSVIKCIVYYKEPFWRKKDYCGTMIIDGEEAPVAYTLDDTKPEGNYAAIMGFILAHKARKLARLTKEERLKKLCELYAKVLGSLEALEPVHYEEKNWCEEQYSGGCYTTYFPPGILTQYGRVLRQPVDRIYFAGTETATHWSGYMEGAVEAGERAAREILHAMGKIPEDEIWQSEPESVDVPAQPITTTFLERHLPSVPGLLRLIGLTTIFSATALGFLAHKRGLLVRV
Chain of UniProt O15151 (whole entry, looked up): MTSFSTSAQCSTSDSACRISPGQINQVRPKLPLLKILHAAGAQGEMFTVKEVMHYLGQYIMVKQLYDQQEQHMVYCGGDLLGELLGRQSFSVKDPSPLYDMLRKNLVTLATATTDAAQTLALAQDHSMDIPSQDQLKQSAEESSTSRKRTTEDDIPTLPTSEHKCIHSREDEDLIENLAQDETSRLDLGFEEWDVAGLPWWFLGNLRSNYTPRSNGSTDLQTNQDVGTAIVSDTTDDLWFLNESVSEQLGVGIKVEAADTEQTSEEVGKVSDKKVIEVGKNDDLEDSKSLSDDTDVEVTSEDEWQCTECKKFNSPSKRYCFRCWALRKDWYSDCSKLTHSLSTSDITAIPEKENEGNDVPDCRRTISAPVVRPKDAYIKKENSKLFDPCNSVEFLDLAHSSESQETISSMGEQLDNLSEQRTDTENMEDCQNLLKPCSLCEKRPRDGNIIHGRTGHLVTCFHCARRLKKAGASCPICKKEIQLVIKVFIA
Chain of UniProt P0AC78 (whole entry, looked up): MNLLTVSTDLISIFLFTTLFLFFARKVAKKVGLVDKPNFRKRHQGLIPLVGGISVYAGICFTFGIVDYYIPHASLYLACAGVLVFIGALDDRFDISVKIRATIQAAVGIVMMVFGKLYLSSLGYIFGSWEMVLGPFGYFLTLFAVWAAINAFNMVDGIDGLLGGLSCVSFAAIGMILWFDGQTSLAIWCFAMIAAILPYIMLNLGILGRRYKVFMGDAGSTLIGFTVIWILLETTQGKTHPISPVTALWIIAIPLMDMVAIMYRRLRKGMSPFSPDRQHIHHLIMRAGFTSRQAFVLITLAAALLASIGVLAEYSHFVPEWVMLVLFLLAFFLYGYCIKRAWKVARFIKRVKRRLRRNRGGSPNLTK
Chain of UniProt P30803 (whole entry, looked up): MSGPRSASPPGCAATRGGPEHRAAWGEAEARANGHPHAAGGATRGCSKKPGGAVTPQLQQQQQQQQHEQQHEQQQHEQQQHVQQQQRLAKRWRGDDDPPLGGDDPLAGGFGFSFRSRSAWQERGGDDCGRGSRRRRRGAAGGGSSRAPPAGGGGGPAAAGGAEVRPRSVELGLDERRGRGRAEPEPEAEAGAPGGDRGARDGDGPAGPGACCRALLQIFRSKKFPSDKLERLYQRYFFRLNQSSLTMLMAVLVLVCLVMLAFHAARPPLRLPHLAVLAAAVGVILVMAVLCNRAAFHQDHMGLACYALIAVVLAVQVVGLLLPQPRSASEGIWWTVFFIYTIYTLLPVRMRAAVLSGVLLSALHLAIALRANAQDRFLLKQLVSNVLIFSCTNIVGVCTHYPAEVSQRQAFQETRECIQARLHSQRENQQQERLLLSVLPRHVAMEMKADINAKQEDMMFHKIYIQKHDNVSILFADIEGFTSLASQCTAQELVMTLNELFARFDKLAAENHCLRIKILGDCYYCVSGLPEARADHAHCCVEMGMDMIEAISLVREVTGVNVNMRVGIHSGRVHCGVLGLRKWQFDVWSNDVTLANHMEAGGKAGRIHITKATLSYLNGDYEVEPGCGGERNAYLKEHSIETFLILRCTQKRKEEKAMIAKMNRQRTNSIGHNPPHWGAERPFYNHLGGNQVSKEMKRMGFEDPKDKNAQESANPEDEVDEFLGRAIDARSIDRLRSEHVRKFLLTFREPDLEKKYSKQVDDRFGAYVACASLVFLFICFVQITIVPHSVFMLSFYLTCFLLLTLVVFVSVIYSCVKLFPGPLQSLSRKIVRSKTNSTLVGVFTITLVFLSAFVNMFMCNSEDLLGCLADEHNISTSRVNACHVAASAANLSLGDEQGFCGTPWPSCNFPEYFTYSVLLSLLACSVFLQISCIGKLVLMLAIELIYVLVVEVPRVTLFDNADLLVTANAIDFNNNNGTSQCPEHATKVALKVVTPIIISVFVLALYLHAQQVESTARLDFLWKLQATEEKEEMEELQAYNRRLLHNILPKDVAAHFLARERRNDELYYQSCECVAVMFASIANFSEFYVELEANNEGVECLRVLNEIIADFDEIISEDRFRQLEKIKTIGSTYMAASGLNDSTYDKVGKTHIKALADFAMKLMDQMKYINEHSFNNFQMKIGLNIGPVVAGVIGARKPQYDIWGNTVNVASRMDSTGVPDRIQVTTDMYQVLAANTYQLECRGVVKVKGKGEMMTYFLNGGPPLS
Chain of UniProt P02770 (whole entry, looked up): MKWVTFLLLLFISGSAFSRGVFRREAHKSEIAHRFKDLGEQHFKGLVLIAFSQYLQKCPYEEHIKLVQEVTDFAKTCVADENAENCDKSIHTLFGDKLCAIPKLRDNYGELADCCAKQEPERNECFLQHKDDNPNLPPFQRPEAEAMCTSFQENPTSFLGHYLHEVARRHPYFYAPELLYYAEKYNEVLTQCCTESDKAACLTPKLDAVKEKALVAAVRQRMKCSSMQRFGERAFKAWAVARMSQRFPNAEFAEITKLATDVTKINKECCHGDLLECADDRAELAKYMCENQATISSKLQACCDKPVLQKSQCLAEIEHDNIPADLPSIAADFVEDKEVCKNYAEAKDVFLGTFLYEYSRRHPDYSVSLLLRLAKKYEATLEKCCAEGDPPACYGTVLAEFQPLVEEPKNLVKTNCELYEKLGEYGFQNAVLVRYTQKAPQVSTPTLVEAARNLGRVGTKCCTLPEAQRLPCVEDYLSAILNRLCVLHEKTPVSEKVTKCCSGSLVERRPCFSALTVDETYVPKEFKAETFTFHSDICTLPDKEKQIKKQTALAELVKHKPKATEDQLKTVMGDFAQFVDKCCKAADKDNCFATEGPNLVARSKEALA
Chain of UniProt Q9VK33 (whole entry, looked up): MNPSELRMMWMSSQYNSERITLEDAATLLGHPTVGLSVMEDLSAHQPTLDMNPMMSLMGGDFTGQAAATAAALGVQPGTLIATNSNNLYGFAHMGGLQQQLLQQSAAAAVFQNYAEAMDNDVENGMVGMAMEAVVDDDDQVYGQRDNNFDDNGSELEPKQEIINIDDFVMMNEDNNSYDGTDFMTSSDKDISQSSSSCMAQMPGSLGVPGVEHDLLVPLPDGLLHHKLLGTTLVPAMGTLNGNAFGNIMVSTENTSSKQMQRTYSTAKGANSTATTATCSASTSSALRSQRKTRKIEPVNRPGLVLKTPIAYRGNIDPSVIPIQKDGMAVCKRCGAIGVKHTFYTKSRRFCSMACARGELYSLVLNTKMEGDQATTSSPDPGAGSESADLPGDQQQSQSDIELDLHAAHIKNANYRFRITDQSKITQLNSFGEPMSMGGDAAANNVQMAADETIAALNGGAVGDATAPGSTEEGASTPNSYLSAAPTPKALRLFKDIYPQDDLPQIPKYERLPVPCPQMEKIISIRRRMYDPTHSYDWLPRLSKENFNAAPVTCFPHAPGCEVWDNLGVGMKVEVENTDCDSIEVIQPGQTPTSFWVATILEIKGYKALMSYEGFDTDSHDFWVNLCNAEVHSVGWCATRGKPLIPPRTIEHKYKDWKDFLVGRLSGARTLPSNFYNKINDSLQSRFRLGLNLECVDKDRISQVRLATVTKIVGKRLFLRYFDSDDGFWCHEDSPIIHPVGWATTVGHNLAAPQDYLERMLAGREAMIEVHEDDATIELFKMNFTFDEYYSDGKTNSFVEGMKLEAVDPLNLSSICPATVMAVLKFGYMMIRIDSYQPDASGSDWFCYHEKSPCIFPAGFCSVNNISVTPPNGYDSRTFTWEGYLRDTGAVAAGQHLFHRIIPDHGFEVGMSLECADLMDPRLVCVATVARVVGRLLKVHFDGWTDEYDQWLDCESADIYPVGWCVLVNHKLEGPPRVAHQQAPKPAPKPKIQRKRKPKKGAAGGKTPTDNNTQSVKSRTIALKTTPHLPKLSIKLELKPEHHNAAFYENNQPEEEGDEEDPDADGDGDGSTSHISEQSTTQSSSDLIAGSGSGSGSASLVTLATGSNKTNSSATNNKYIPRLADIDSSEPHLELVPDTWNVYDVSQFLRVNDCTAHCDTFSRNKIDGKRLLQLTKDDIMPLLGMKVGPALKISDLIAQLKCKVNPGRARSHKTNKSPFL

| SMILES | target or system | test | setting | quantity | result |
| --- | --- | --- | --- | --- | --- |
| CC[C@H](C)[C@H](NC(=O)[C@H](CC(N)=O)NC(=O)[C@H](CCCNC(=N)N)NC(=O)[C@@H](NC(=O)[C@@H](NC(=O)[C@H](CC(=O)O)NC(=O)[C@H](CCC(=O)O)NC(=O)[C@H](CCC(N)=O)NC(C)=O)[C@@H](C)CC)[C@@H](C)CC)C(=O)N[C@@H](C)C(=O)N[C@@H](CCCNC(=N)N)C(=O)N[C@@H](Cc1c[nH]cn1)C(=O)N[C@@H](CC(C)C)C(=O)N[C@@H](C)C(=O)N[C@@H](CCC(N)=O)C(=O)N[C@H](C(=O)NCC(=O)N[C@@H](CC(=O)O)C(=O)N[C@@H](CO)C(=O)N[C@@H](CCSC)C(=O)N[C@@H](CC(=O)O)C(=O)N[C@@H](CCCNC(=N)N)C(=O)N[C@@H](CO)C(=O)N[C@H](C(=O)N1CCC[C@H]1C(=O)N1CCC[C@H]1C(N)=O)[C@@H](C)CC)C(C)C | Bcl-2-like protein 1, C-terminal truncated (BCL2L1, Homo sapiens, UniProt Q07817) | binding, isothermal titration calorimetry | pH 7.4, 25 °C, together with: PUMA BH3 peptide | Kd | 10 ± 15 nM |
| CNc1ccccc1C(=O)O[C@H]1[C@@H](O)[C@H](n2cnc3c(N)ncnc32)O[C@@H]1COP(=O)(O)OP(=O)(O)O | Adcy2/ADCY5, C1/C2 domains (Rattus norvegicus, UniProt P26769+P30803) | adenylyl cyclase activity, inhibitor | together with: Mn2+ forskolin Gsα-GTPγS | Ki | 260 ± 40 nM |
| CC[C@H](C)[C@H](NC(=O)[C@H](C)NC(=O)[C@H](CCC(=O)O)NC(=O)[C@H](Cc1c[nH]cn1)NC(=O)[C@@H](NC(=O)[C@H](CCCCN)NC(=O)[C@H](CCC(N)=O)NC(=O)[C@H](Cc1ccccc1)NC(=O)[C@@H](NC(=O)[C@H](CCCCN)NC(=O)[C@H](CCCCN)NC(=O)[C@H](CC(C)C)NC(=O)[C@H](C)NC(=O)[C@H](CC(N)=O)NC(=O)[C@@H](N)CC(C)C)C(C)C)[C@@H](C)CC)C(=O)N[C@@H](CCCCN)C(N)=O | mouse erythrocytes | – | – | HC10 | 128 µM |
| N[C@H](CC[As](O)O)C(=O)O | GLS (Homo sapiens, UniProt O94925) | – | – | IC50 | 2000 nM |
| CC[C@H](C)[C@@H]1NC(=O)[C@@H]2CSSC[C@@H]3NC(=O)[C@H](C(C)C)NC(=O)CNC(=O)CNC(=O)[C@H](C)NC(=O)[C@H](CO)NC(=O)[C@H](CC(C)C)NC(=O)[C@H](CC(C)C)NC(=O)[C@H](CC(N)=O)NC(=O)[C@H](Cc4c[nH]c5ccccc45)NC(=O)[C@H](Cc4ccc(O)cc4)NC(=O)[C@H](CCC(=O)O)NC(=O)[C@H](C)NC(=O)[C@H](Cc4ccccc4)NC(=O)[C@H](CO)NC(=O)[C@H]([C@@H](C)O)NC(=O)[C@@H]4CCCN4C(=O)[C@H](C)NC(=O)[C@H](CCCNC(=N)N)NC(=O)[C@H](CO)NC(=O)[C@H](C)NC(=O)CNC(=O)[C@H](CO)NC(=O)CNC(=O)[C@H](CO)NC(=O)CNC(=O)[C@@H]4CSSC[C@H](NC(=O)[C@H](CC(=O)O)NC(=O)[C@H](CO)NC(=O)[C@H](CC(=O)O)NC(=O)[C@H](CCCNC(=N)N)NC(=O)[C@H](CCCNC(=N)N)NC(=O)[C@H](CSSC[C@H](NC1=O)C(=O)N[C@@H](CCCNC(=N)N)C(=O)NCC(=O)N[C@@H](CC(N)=O)C(=O)NCC(=O)N[C@@H](Cc1ccc(O)cc1)C(=O)N4)NC(=O)[C@H](CCCNC(=N)N)NC(=O)[C@H](CCC(N)=O)NC(=O)[C@H](CC(C)C)NC(=O)[C@H]([C@@H](C)CC)NC(=O)[C@H](CCCCN)NC(=O)[C@@H]1CCCN1C3=O)C(=O)N1CCC[C@H]1C(=O)NCC(=O)N[C@@H](C)C(=O)N2 | Protein Mdm4, p53 binding domain (MDM4, Homo sapiens, UniProt O15151) | binding, fluorescence polarization | FITC-labelled derivative | Kd | 9.7 ± 0.9 nM |
| CC[C@H](C)[C@H](NC(=O)[C@H](CCCCN)NC(=O)[C@H](CCC(N)=O)NC(=O)[C@H](Cc1ccccc1)NC(=O)[C@@H](NC(=O)[C@H](CCCCN)NC(=O)[C@H](CCCCN)NC(=O)[C@H](CC(C)C)NC(=O)[C@H](C)NC(=O)[C@H](CC(N)=O)NC(=O)[C@@H](N)CC(C)C)C(C)C)C(=O)N[C@@H](Cc1c[nH]cn1)C(N)=O | mouse erythrocytes | – | – | HC10 | 256 µM |
| C#CCCC1(CCCNC(=O)CCOCCOc2ccc(-c3cnc4c(C#Cc5cccnc5)snc4c3)cc2)N=N1 | PIP4K2C (Homo sapiens, UniProt Q8TBX8) | – | – | Kd | 610 nM |
| CCOP(=O)(OCC)Oc1nc(Cl)c(Cl)cc1Cl | Albumin (Alb, Rattus norvegicus, UniProt P02770) | binding | – | IC50 | ~100 nM |
| NC1CC1c1ccc(NC(=O)Cc2cccc3ccccc23)cc1 (stereo not drawn) | MAOB (Homo sapiens, UniProt P27338) | enzyme activity, inhibitor, HRP-coupled | 100 µM, together with: benzylamine substrate | inhibition | 48% |
| CC(=O)NC1C(OC2OC(CC(O)C3OC(n4ccc(=O)[nH]c4=O)C(O)C3O)C(O)C(O)C2NC(=O)C=CCCCCCCCCCC(C)C)OC(CO)C(O)C1O (stereo not drawn) | Undecaprenyl-phosphate alpha-N-acetylglucosaminyl 1-phosphate transferase (wecA, Escherichia coli, UniProt P0AC78) | – | – | IC50 | > 50000 nM |
| CC(=O)N[C@@H](CC(=O)O)C(=O)N[C@H]1CSSC[C@@H](C(=O)N[C@H](C(N)=O)[C@@H](C)O)NC(=O)[C@H](Cc2c[nH]c3ccccc23)NC(=O)[C@H](C(C)C)NC(=O)[C@H](CC(C)C)NC(=O)[C@H](CCC(=O)O)NC(=O)CNC(=O)[C@H](CCCCN)NC(=O)[C@H](Cc2c[nH]cn2)NC(=O)[C@H](Cc2ccc(O)cc2)NC(=O)[C@H](C)NC1=O | Immunoglobulin heavy constant gamma 1 (IGHG1, Homo sapiens, UniProt P01857) | binding, SPR | pH 7.4, together with: immobilized Herceptin | Kd | > 2000 nM |
| CNCCCC[C@H](NC(=O)[C@@H](NC(=O)CNC(=O)CNC(=O)[C@@H](NC(=O)[C@H](C)NC(=O)[C@@H]1CCCN1C(=O)[C@H](C)NC(=O)[C@@H](N)CO)[C@@H](C)O)C(C)C)C(=O)N[C@@H](CCCCN)C(=O)N1CCC[C@H]1C(=O)N[C@@H](Cc1c[nH]cn1)C(=O)N[C@@H](CCCNC(=N)N)C(=O)N[C@@H](Cc1ccc(O)cc1)C(=O)N[C@@H](CCCNC(=N)N)C(=O)N1CCC[C@H]1C(=O)NCC(N)=O | Polycomb protein Sfmbt (Sfmbt, Drosophila melanogaster, UniProt Q9VK33) | binding, fluorescence polarization | pH 8.0, Drosophila melanogaster protein, together with: fluorescein-labelled peptide 80 nM | Kd | 5400 nM |
